Measurements from different studies.
Compare with care: the assays were run in different laboratories. ± gives the spread as reported.

Compound = COC(=O)c1c[nH]c2cc(CN3CCN(Cc4ccc(OC)cc4)CC3)ccc2c1=O; target or system = Plasmodium berghei; system = HepG2, liver stage; setting = 44 h; endpoint = EC50; result = 44 to 83 nM
Compound = CC(=CC(=O)NCCCCNc1cc(C(F)(F)F)nc2c(C(F)(F)F)cccc12)C(=O)NCCCCNc1cc(C(F)(F)F)nc2c(C(F)(F)F)cccc12; target or system = Zika virus; assay = viral cytopathic effect, visual CPE scoring; system = Vero; endpoint = EC50; result = 2350 nM
Compound = CCOC(=O)C(C)NP(=O)(COC(CF)CN1CN2C=C(c3ccc([N+](=O)[O-])cc3)NC2=NC1=O)NC(C)C(=O)OCC (stereo not shown); target or system = herpes simplex virus 1; assay = cytopathic effect; system = HEL, KOS, TK-deficient, acyclovir-resistant; endpoint = EC50; result = > 100000 nM
Compound = CN[C@@](C)(C[18F])C(=O)O; target or system = A549 tumour model; system = host not given, muscle; setting = 15 min, tumour-bearing; endpoint = tracer uptake; result = 1.4 %ID/g
Compound = Nc1ncnc2c1ncn2C[C@H](O)CO; target or system = respiratory syncytial virus; assay = viral replication; system = HeLa; endpoint = EC50; result = > 250000 nM
Compound = O=C(NCc1ccc(F)cc1)c1cn(Cc2ccc(F)cc2)cc(O)c1=O; target or system = Human betaherpesvirus 5; assay = viral replication, inhibitor; setting = 7 days; endpoint = EC50; result = 780 nM
Compound = O=C(CN1c2c(n[nH]c2-c2cccc(Cl)c2)-c2ccccc2S1(=O)=O)NN=Cc1ccc([N+](=O)[O-])cc1; target or system = HIV-1; assay = viral replication; system = PBMC; endpoint = EC50; result = 7500 nM
Compound = CC(=NNC(=O)CN1c2c(-c3ccccc3)n[nH]c2-c2ccccc2S1(=O)=O)c1ccc2ccccc2c1; target or system = HIV-1; assay = viral replication; system = PBMC; endpoint = EC50; result = > 100000 nM
Compound = CCN(CC)Cc1cc(Nc2ccnc3cc(Cl)ccc23)ccc1O; target or system = Dengue virus 2; assay = viral replication, plaque; system = BHK-21; setting = 72 h; endpoint = EC50; result = 1080 ± 90 nM
Compound = CC(C)(C)C(=O)N(CCCCCCN1C[C@H](O)[C@@H](O)[C@H](O)[C@H]1CO)C1CCCCC1; target or system = bovine viral diarrhea virus; system = MDBK; setting = 22 h; endpoint = EC50; result = 400 ± 600 nM
Compound = N/C(=N\O)c1cc(O)c(O)c(O)c1; target or system = human cytomegalovirus; assay = viral spread, GFP reporter; system = ARPE-19, BADrUL131-Y4 (AD169, GFP); setting = 14 d; endpoint = EC50; result = 125000 ± 19000 nM
Compound = Cc1ccc(S(=O)(=O)N2C(=O)CSC2c2ccccc2O)cc1 (stereo not shown); target or system = herpes simplex virus 1; assay = viral cytopathicity; system = HEL, KOS; endpoint = EC50; result = > 100000 nM
Compound = Cc1cccc(C)c1OCC(=O)N[C@@H](Cc1ccccc1)[C@@H](O)C[C@H](Cc1ccccc1)NC(=O)[C@H](C(C)C)N1CCCNC1=O; target or system = Alphacoronavirus 1; assay = viral replication, inhibitor; system = CRFK; setting = 2 h; endpoint = EC50; result = 6220 nM
Compound = CCOC(=O)c1cn(Cc2ccc(F)cc2)ccc1=O; target or system = Human betaherpesvirus 5; assay = viral replication, inhibitor; setting = 7 days; endpoint = EC50; result = > 50000 nM
Compound = O=C(Cc1csc2nc(-c3ccc(Br)cc3)cn12)NN=C1CCC(c2ccc(O)cc2)CC1 (stereo not shown); target or system = feline herpesvirus; assay = viral cytopathic effect; system = CRFK; endpoint = EC50; result = > 100 µg/mL
Compound = O=C(NCc1ccc(Br)cc1F)c1cn(Cc2ccc(F)cc2)cc(O)c1=O; target or system = Human betaherpesvirus 5; assay = viral replication, inhibitor; setting = 7 days; endpoint = EC50; result = 610 nM
Compound = Cc1ccc(S(=O)(=O)N2C(=O)CSC2c2ccccc2[N+](=O)[O-])cc1 (stereo not shown); target or system = herpes simplex virus 1; assay = viral cytopathicity; system = HEL, KOS TK-deficient acyclovir-resistant; endpoint = EC50; result = > 100000 nM
Compound = O=Cc1cc(Cn2ccc(=O)[nH]c2=O)ccc1O; target or system = human cytomegalovirus; assay = cytopathic effect; system = HEL fibroblasts, Davis; endpoint = EC50; result = > 100000 nM
Compound = COc1cc(CN2CC3(CCN(S(=O)(=O)c4cn(C)cn4)CC3)c3c(n(C)c4cc(OC)ccc34)[C@H]2CO)cc(OC)c1; target or system = respiratory syncytial virus; assay = cytopathic effect; system = HEp-2, A2; setting = 5 days, resynthesized sample; endpoint = EC50; result = 26800 nM
Compound = COC(=O)N[C@H](C(=O)N1CCC[C@H]1c1ncc(-c2ccc(-c3ccc(-c4cnc([C@@H]5CCCN5C(=O)[C@@H](NC(=O)OC)C(C)C)[nH]4)cc3)cc2)[nH]1)C(C)C; target or system = hepatitis C virus; assay = viral replication, transient replicon; system = genotype 1a NS5A Q30R; endpoint = EC50; result = 7.3 ± 1.1 nM
Compound = O=S(=O)(c1cccs1)N1CCCCN2[C@H](CO)[C@@H](c3ccc(/C=C/c4ccccc4)cc3)[C@@H]2C1; target or system = respiratory syncytial virus; assay = cytopathic effect; system = HEp-2, A2; setting = 5 days, original sample; endpoint = EC50; result = 1700 nM
Compound = O=c1ccn([C@@H]2CS[C@H](CO)[C@H]2F)c(=O)[nH]1; target or system = Coxsackievirus B3; assay = viral cytopathic effect; system = HeLa; endpoint = EC50; result = > 100 µg/mL

Repeated from above:
Compound = Cc1ccc(S(=O)(=O)N2C(=O)CSC2c2ccccc2[N+](=O)[O-])cc1 (stereo not shown); target or system = herpes simplex virus 1; assay = viral cytopathicity; system = HEL, KOS TK-deficient acyclovir-resistant; endpoint = EC50; result = > 100000 nM
Compound = N/C(=N\O)c1cc(O)c(O)c(O)c1; target or system = human cytomegalovirus; assay = viral spread, GFP reporter; system = ARPE-19, BADrUL131-Y4 (AD169, GFP); setting = 14 d; endpoint = EC50; result = 125000 ± 19000 nM
Compound = CC(=NNC(=O)CN1c2c(-c3ccccc3)n[nH]c2-c2ccccc2S1(=O)=O)c1ccc2ccccc2c1; target or system = HIV-1; assay = viral replication; system = PBMC; endpoint = EC50; result = > 100000 nM
